# Assay results from different studies.
# Numbered parts are unrelated; each lists some results of a single study. Substitutions count along the parent as printed.

# Block 1 — method: protein-binding microarray; form: double-stranded DNA, one strand shown; medium: in vitro; tested at: not given; reading: higher = stronger binding
# Target: Transcriptional repressor CTCF (CTCF, Homo sapiens, UniProt P49711, residues 1-727, full length assumed)
# Setting: k-mer, scored over probes, only values ≥0.25
# Construct (chain): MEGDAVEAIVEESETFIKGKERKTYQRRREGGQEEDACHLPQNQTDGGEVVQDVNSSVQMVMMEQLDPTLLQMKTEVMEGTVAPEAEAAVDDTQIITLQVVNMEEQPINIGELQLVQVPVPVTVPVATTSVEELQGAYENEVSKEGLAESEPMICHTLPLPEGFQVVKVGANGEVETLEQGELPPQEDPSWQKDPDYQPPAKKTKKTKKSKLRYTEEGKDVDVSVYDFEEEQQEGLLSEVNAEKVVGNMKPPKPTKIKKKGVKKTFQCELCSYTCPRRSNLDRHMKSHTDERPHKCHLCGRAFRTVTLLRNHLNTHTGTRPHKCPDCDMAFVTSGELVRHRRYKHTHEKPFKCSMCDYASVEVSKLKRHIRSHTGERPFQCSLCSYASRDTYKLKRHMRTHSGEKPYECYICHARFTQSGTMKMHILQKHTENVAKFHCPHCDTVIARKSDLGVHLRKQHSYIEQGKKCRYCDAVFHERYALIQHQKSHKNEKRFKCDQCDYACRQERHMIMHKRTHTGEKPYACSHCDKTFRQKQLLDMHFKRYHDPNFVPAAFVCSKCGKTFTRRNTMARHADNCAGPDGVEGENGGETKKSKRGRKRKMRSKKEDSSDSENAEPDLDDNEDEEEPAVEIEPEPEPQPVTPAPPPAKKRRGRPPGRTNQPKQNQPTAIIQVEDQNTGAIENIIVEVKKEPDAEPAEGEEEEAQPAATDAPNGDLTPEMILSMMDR
Sequence,E-score
AGATTAAT,0.256
TATCTCAA,0.307
CTGTTATA,0.292
ATTTAACG,0.252
AATATATC,0.303
GCGATTAA,0.337
TATTGTAA,0.278
GCGCTGCA,0.277

# Block 2 — method: RNA Bind-n-Seq; form: RNA; medium: in vitro; tested at: 20 nM; setting: 6-mer, flanks averaged, single round; with: 150 mM LiCl; baseline: input library; reading: higher = stronger binding
# Target: TAR DNA-binding protein 43, full length, His tag (TARDBP, Homo sapiens, UniProt Q13148, residues 1-414)
Sequence,6-mer enrichment (R)
AUGAAA,0.882
GACGUC,0.895
UUUGCG,1.19
GCUGUA,1.06
UCACCU,0.889
UCGUGU,1.14
UACCGU,0.861
CUAAGU,0.892

# Block 3 — target: CCNE2, cyclin fold, Cln2 fusion (human); method: yeast growth competition, sequencing; medium: yeast; setting: strong parent motif; baseline: not given; reading: higher = stronger binding; starting sequence: viral docking peptide; TSVRRALFTGGSD
Variant,normalised enrichment score
TSVRRALFRGGSD [T9R],3.27
TSVRRALFTGGTD [S12T],3.91
TSVRRALFTCGSD [G10C],3.81
TSVRRSLFTGGSD [A6S],2.05
TSVRRALFTGVSD [G11V],4.13

# Block 4 — target: vanadate, free oxyanion; method: microfluidic competitive inhibition; medium: in vitro, cell-free expressed; tested at: not given; reading: lower = stronger binding
# Setting: derived from inhibition constants, unchanged parent 676 nM
# Starting sequence: PafA, mature enzyme, eGFP fusion (Elizabethkingia meningoseptica, UniProt Q9KJX5); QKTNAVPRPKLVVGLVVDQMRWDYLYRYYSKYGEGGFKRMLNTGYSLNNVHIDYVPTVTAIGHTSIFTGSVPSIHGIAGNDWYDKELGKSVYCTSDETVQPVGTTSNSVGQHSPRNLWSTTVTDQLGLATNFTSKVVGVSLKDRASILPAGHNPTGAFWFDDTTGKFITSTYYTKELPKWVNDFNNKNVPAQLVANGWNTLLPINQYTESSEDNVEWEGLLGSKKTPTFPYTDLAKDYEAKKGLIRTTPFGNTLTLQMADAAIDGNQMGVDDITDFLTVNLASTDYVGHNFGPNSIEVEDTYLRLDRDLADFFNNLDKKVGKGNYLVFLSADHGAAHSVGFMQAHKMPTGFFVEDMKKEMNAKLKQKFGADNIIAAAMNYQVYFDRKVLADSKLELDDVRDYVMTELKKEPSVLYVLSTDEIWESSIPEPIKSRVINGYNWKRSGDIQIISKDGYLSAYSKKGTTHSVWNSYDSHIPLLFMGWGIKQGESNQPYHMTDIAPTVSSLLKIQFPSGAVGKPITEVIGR
Variant,oxyanion analog dissociation constant
A191G,594 nM
P348G,751 nM
C93G,2.23 µM
G127A,630 nM
P501G,693 nM
E299V,666 nM
L326G,580 nM
G138A,515 nM
Q448V,792 nM
D355V,605 nM
P7G,577 nM
N48V,2.61 µM
F276G,1.11 µM
M378G,2.06 µM
D385G,706 nM
I61V,805 nM
D53V,685 nM
E209G,564 nM
K166V,1.07 µM

# Other studies, line by line
Substance,target,assay,system,setting,scale,quantity,result
"PhoQ, residues 284 288 289 292 302 303 SLSVQF","PhoP, residues 12 14 15 18 19 NQFFI (Escherichia coli, UniProt P23836)","Sort-seq, item: YFP reporter",E. coli,"PhoQ-PhoP variant library, with: 10 µM Mg2+","baseline: high Mg2+ state, higher = stronger signaling",fold induction,13.7

# Repeated from above (block 1):
Sequence,E-score
CTGTTATA,0.292
AGATTAAT,0.256
ATTTAACG,0.252
AATATATC,0.303
GCGCTGCA,0.277
GCGATTAA,0.337
